Experimental data pooled from the literature.
A part holds a random share of what one study measured. Positions count from the first letter of the parent shown.

Block 1
Target: Sal-like protein 4, full length isoform A (SALL4, Homo sapiens, UniProt Q9UJQ4, residues 1-1053)
Sequence of UniProt Q9UJQ4 (whole entry, looked up): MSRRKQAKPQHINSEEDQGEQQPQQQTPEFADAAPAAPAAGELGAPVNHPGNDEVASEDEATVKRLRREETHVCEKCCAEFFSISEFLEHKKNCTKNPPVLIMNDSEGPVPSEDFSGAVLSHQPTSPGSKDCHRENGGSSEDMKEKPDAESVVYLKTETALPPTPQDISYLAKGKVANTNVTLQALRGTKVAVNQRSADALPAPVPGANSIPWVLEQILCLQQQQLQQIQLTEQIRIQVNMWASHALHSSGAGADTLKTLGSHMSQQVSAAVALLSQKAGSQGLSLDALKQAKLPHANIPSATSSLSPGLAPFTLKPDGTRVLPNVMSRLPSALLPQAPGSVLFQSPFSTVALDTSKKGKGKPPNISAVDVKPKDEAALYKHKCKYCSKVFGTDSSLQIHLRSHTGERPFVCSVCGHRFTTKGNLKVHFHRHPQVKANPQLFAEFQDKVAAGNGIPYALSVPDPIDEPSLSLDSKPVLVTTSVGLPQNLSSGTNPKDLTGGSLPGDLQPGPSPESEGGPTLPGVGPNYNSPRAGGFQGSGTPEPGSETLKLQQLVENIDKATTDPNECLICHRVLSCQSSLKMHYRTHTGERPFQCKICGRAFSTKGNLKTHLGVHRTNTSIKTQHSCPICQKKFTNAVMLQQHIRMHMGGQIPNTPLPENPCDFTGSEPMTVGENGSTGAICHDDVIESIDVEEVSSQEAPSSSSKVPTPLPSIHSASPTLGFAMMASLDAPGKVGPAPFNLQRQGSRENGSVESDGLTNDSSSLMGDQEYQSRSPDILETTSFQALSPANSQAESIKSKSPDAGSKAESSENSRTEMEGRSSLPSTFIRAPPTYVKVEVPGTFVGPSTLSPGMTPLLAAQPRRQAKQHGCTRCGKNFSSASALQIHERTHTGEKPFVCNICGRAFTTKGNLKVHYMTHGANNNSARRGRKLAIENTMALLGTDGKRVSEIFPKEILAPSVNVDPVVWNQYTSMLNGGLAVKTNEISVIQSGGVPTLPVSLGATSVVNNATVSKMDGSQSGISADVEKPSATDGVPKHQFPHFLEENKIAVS
Technique: universal PBM
Form: double-stranded DNA, one strand shown
Matrix: in vitro
Tested at: 600 nM
Setting: 8-mer, flanks averaged, mean of replicates
Reading: higher = stronger binding
Measurement: E-score
GGTCTGAA: -0.0282
CCGGTCAA: -0.215
AGCCATCG: -0.131
GACCGGAC: -0.357
AGGCTGTG: -0.134
CAATCAAG: 0.0287
CCACCCGA: -0.213
CCCTTCCA: -0.187
AATGTGAC: 0.0216
AACCTAAC: 0.0633
AAGAGCTA: 0.0694
GTGCTTCA: 0.0265
AACTGGCC: -0.25
CCACCGTA: -0.117
CGGGTGAG: -0.277
ACTCGTCC: -0.179
ATCGAGGG: -0.126
AATTTAGA: 0.204
AGGCCACA: -0.199
AGCATTCA: 0.0443
GCTGACCA: -0.189
CAACAACC: -0.136

Block 2
Target: Histone acetyltransferase KAT6A, both winged helices, GST fusion (KAT6A, Homo sapiens, UniProt Q92794, residues 1-181)
Technique: protein binding microarray
Form: double-stranded DNA, one strand shown
Matrix: in vitro
Tested at: not given
Setting: 8-mer, flanks averaged, mean of 2 arrays, mostly near background
Reference: not given
Reading: higher = stronger binding
Measurement: E-score
Construct (chain): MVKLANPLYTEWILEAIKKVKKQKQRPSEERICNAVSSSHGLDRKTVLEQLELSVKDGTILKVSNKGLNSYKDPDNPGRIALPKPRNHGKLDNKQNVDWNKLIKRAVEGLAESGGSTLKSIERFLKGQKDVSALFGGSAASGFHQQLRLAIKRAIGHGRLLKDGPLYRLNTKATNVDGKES
GGAACCAA: 0.0523
CCGGCCCG: 0.336
AACGTGCA: -0.139
AGCCAGAA: -0.122
CTCAGCGC: 0.288
GGTGTCCA: -0.164
GTGCCCGA: 0.0856
CAATGAGG: -0.121
CGTTCTAA: 0.0347
AGACGCGG: 0.269
AAAGAGCC: -0.00943
AAGGTAGG: -0.206
ACTCTTAT: -0.207
CTACAAGA: -0.195
CCCCTAGC: -0.22
GTTTCGCA: 0.011
AGCAAGCA: -0.0823
AGTCCCGA: 0.0385
ATGGCGGA: 0.146

Block 3
Target: CCND2, cyclin fold, Cln2 fusion (human)
Technique: yeast growth competition, sequencing
Matrix: yeast
Setting: strong parent motif
Reference: not given
Reading: higher = stronger binding
Measurement: normalised enrichment score
Parent: PKN2 docking peptide (human); VSAVRKLDFSDTM; partner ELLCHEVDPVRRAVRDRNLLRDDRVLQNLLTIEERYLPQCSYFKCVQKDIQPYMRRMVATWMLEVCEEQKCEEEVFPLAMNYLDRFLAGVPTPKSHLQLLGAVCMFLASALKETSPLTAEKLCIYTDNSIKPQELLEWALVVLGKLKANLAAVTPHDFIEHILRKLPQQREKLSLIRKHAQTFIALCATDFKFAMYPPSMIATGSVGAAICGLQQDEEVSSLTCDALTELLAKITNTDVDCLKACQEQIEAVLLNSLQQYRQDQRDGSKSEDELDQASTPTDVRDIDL
VSAVRKNDFSDTM [L7N]: 0.165
VSAVRKLDYSDTM [F9Y]: 0.482
VSACRKLDFSDTM [V4C]: 3.66
VSAVRKRDFSDTM [L7R]: 0.0979
VSAVRKLPFSDTM [D8P]: 0.71
VSIVRKLDFSDTM [A3I]: 1.52
VSAVRKLDFWDTM [S10W]: 1.45
VSAVRKLDRSDTM [F9R]: 0.0512
VSAVRKLVFSDTM [D8V]: 1.77
VSAGRKLDFSDTM [V4G]: 0.589
VSAVWKLDFSDTM [R5W]: 0.63
VSAVRKLDFSSTM [D11S]: 3.41
VSAVRKLDFSDNM [T12N]: 4.04
VSPVRKLDFSDTM [A3P]: 1.31
VSAYRKLDFSDTM [V4Y]: 1.04
VSAVRKLDFSQTM [D11Q]: 3.07
VSAVRKLDFTDTM [S10T]: 3.38
VSAQRKLDFSDTM [V4Q]: 2.44
VSANRKLDFSDTM [V4N]: 1.46
VSAVRKLDFSATM [D11A]: 3.11
VSAVRKLDFSKTM [D11K]: 3.05
VSAVRKLDFSGTM [D11G]: 3.16
VSAVRKLDFSDYM [T12Y]: 3.4
VSAVRKLDFFDTM [S10F]: 1.75

Block 4
Target: RNA binding protein fox-1 homolog 2, RRM domain, GST-SBP tag (RBFOX2, Homo sapiens, UniProt O43251-10, residues 100-194)
Technique: RNA Bind-n-Seq
Form: RNA
Matrix: in vitro
Tested at: 365 nM
Setting: natural RNA segment, single round, ends assumed
Reference: no-protein control
Reading: higher = stronger binding
Measurement: RBNS enrichment (R)
All sequences stand within: GGGAGUUCUACAGUCCGACGAUC … UGGAAUUCUCGGGUGCCAA
Construct (chain): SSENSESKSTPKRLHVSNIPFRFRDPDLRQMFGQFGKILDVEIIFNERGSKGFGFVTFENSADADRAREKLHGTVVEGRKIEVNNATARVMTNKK
UUCCAAGCUUUGUGUGAAACUUGAUGACAUUGGGCCAGCAAAAUGCAAAGAAGACUAUAGUUUCAGGCAGAAAAUCACGUCCAAAGAAUUUGGCAUGGAUUAAACAACCU: 0.269
GUCCUCCUGCCUGCCUGAAGGUCUCCCAUGAAAACACUGCUGAACUGUGUUGACACUCAUGACCCUUUUUUUAAACCGUUAAAGGGAAGUUCGGUGUUGGAGCGAUACUC: 0.847
GGCCGCCGUGGGUGUGCGUGUGUGCGACUCAGAAUGUGGGUGGUGGCGCCCUCAGAGACCCUGGCAUUGGCUGAGCCAAUGUUGGGCCUUCUGAAAAGAAGCCCAGGGGA: 0.784
AGGUGGGGCUCCUGGCCCAGCAGCAGCAACUUGUUUGUUAGAAUGCAGACGCGCAGGCCCCACCUGGCCUCCUGAAUCAAAAUGGUGUGCGGCAGGGUGCAGCGAGCUGU: 0.502
CCUCCUGACUGAGCCUACCACCCGCAGGUCUCCAUGAAACUUUCCCUCAUGUCCUCAGUGGUCUGGCAAGCCGUUCACCCCUGCUGACAGGCUUCAAGCUGCUAAACACC: 0.396
CCAAGGCUCUACUGGGUCCCUGGACCUAACCCUGCUUUCAUCCUGGUGGCCUUAACUACAGUGGAGGUGGAACUUCCCAGGAGGGGAAGGGACAGACCAGCCCCAGCCGC: 0.486
AUUUGCUCACAUUAACAAAUUAAAGUGCCUGAAGCAUAAUUCAUUCUUUACCUGUAUACUAAAAACCCUGUUGUAUUGAUUUUUUUAUAAUAAGCCUUUUUACCUCUGUG: 0.725
GGUUCCCUAGCAACCAGCCCAGCAUUGGGUCCAGUUUUCAGCAACCAGUUAGAUUCUUGCUCCCAGAUUGACUGUUAGUUUUCAGGAAACAAGGCUAUCUUUGGUCAUAU: 0.247
CCACAACCAGGAAGAACAAAUCUGGGCAUUGAGCAAGCUAUGAGGGUCCCCGGGAGCACACGAACCCUGCCAGGCCCCCGCUGGCUCCUCCAGGCACGUCCCGGACCUGU: 0.63
UUUAUUUUUAAGUUACCAGGCACUUUUCAUGCUAUUUAAGACUAUAUAUCAAAUUGUGCACUUUAAAUAUGUGCAAUUUGUUGUACAUCAGUGAUACCUCAAUAAAUCUG: 0.281
GGUUAGACAUUUUUAUUUCAUUGACUAACCCAGGACAGUUUCAGUGAUGCAAAUUGUGUGCCCUCUGGUUCAGCUGAAACAGUCCUGGACUUUCAAAAACCUUGAAUAAG: 0.352
GGGUAUGUCCUGCUCCUUUCCACCAGUGAUUUGUAUUAAGACAGCACUUAUAUUGUACAAUACUUCAGACUGUUUUUUUUAAAUACAUAAAACUUUAUGUUAAAAAACUC: 0.557

Block 5
Target: RING finger protein unkempt homolog, zinc fingers 1-6, GST-SBP tag (UNK, Homo sapiens, UniProt Q9C0B0, residues 30-357)
Technique: RNA Bind-n-Seq
Form: RNA
Matrix: in vitro
Tested at: not given
Setting: RNA with constant flanks, ends assumed
Reference: input RNA pool
Reading: higher = stronger binding
Measurement: bound/input enrichment
All sequences stand within: GGGAGUUCUACAGUCCGACGAUC … CAACAGAGGAUUGAGCAUCA
Target sequence (chain): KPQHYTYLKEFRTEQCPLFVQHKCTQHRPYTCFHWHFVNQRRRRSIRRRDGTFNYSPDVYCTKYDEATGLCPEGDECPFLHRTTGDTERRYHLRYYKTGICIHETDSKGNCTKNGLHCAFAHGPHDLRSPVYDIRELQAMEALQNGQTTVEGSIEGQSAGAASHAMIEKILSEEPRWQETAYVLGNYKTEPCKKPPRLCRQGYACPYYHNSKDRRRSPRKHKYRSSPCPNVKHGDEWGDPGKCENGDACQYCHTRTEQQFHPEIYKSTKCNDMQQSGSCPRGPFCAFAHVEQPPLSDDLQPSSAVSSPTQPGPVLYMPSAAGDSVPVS
UGUGGAAGUGCCCCGUGUUUGCUAUGCCGAUGCUGUCCUAGUGGAAACAACUCCACUGUAACCCGAUUGAUCUAUGCACUUUUCUUGCUUGUUGGAGUAUGUGUAGCUUGUGUAAUGUUG: 0.195 ratio
CCUGACAAGCUGAACAAUGGUGGAUCUGAUAGCCCAUGUGACUUGAAAUCACCUAGUGCUUUCCGUGAAAACCGGCAGGACUAUUUUGAAUAUGAGUCAACUAACCCGUUUACAGCAAAA: 0.157 ratio
CCUGAGUUCGAGCCAGUUUUUAGUCUUUUUGCCUUCACCAACAAAAUUACUUCUGUGCACAGCCGAAUUAUUUGGUCUUGUGAUUGGAGUCCUGACAGCAAGUAUUUCUUCACUGGGAGU: 0.477 ratio
UCCUGGUGCGACAGCGUGGGACAAUGUGAACAUGGACUCGAAGACAUGGCCCUUUCUCUGCCGUUGAUUUUUUAAAUGUGCCAUUAUUGUUUUUAAAAAAAAAGGAAAAAAGAAAAGCAA: 0.247 ratio
AAGAGGAAGCUGAUUGUUGACAGUGUCAAAGAAUUGGAUAGUAAGACCAUUAGAGCCCAGCUCCGCGAUUAUUCUGAUAUUGUUACGACUCUGGACCUGGCUCCGCCAACCAAGAAGCUU: 0.105 ratio
ACAGCAUUCAUAGUAGAAAGAGACUUUGGUGGAGUCACUAAUGGGAAACCCGAAGAUAAAUCCGGCAUUCGGGGCUCCAACACUUGUGAAGUCCAUUUUGAAAACACCAAGAUACCUGUG: 0.182 ratio
AGUGAAAAUAUUUCUGCAGCUAUCCAAGCUAAUGGUGAAAUGGUUACAAAGCAACCAUUGAUCCGAAGUAUGCGAACUGUAAAAAGGGAAACUUUAAAGUUAAUAUCUGGUUGGGUGAGC: 0.216 ratio
AAGAGGAAGCUAAUUGUUGACAGUGUCAAAGAGUUGGAUAGCAAGACAAUUAGAGCCCAACUCCGUGAUUAUUCAGAUAUUGUUACUACUUUGGAUCUGGCACCGCCCACCAAGAAAUUG: 0.23 ratio
CGGAGGUAAACCCUGCACGCACAUCGUGCUUCGGCGUGUCAGGUAUUUGAAUUUAGAGUUCCGUUUCCCAUAACAUUUUCUACAAGAAGAAUCUUGGUAGUGUCUCAAAGACAUCACUGA: 0.249 ratio
GAGGAGUCUGGGUUCAGGGAGCCCGUGCUGGAUGCCAAGUCGGAGGUCACGGGCCAGCUUACCGAUUUUCAGUGGAAACUGGGCAUGGCUGUGAGCUCUGACAGCUGCAGAUCUCUCAAG: 0.0523 ratio
GAGGACCCAAGGUUGAUUCUCAUCACUUUUUUAAAUACUCCGAUUGCGGCCAAUCUGCCAACCGGAUUCUUAGAGCUCACCCCGCUCGUUGGAUUGAUCCGCUGGUGCGUGAAGGCACCC: 0.198 ratio

Repeated from above (block 2):
AAAGAGCC: -0.00943
ATGGCGGA: 0.146
AAGGTAGG: -0.206
CAATGAGG: -0.121
GGAACCAA: 0.0523
